Assay results gathered from unrelated publications.
Parts stem from different laboratories: compare values within a part only. Changes are numbered by the printed parent chain.
Chain of UniProt Q96PY6 (whole entry, looked up): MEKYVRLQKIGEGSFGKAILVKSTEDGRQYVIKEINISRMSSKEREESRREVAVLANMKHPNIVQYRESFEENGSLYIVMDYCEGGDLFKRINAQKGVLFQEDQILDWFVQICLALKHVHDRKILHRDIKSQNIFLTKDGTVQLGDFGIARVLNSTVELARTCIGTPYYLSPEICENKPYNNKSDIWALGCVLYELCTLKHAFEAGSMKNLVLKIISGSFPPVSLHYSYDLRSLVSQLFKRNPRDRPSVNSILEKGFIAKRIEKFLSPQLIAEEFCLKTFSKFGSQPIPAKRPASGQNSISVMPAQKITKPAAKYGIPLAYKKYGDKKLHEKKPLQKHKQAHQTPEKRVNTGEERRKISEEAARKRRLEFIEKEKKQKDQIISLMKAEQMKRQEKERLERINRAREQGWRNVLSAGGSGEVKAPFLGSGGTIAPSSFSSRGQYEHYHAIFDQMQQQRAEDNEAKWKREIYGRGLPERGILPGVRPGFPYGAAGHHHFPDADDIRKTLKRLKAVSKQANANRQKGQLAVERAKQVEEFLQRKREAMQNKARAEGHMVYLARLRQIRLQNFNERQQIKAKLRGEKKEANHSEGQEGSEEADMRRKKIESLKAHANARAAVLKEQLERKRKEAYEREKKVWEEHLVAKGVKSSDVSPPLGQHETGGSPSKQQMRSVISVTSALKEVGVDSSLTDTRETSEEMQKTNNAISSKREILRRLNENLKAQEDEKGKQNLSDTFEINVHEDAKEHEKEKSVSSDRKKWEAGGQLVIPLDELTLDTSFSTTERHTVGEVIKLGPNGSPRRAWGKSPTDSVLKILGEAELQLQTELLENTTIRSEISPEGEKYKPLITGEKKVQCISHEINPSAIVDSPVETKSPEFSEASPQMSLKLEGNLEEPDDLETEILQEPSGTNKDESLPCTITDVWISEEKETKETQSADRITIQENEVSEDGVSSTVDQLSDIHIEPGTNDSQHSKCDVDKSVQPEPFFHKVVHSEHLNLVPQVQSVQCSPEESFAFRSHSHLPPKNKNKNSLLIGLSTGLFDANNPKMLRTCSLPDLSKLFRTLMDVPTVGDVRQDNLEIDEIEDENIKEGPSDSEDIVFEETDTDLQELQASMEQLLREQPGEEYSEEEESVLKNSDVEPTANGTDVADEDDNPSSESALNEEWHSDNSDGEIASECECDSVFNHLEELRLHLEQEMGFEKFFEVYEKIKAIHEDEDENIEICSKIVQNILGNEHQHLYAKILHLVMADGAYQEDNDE
Chain of UniProt Q8WTQ7 (whole entry, looked up): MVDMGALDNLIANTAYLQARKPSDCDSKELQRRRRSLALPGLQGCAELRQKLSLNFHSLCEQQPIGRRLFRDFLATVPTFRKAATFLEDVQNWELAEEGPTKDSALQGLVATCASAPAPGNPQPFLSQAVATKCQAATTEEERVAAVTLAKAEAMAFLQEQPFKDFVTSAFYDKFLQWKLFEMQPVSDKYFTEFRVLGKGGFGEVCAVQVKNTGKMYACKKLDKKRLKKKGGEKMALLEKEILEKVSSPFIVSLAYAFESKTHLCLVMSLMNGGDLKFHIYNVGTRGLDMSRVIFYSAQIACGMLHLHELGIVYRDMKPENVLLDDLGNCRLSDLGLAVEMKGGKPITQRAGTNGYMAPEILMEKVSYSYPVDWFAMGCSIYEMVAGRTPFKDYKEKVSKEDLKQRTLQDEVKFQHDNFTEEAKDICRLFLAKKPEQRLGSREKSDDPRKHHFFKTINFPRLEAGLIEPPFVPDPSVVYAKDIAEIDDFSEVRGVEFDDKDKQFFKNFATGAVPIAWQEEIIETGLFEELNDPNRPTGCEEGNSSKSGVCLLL
Chain of UniProt P29320 (whole entry, looked up): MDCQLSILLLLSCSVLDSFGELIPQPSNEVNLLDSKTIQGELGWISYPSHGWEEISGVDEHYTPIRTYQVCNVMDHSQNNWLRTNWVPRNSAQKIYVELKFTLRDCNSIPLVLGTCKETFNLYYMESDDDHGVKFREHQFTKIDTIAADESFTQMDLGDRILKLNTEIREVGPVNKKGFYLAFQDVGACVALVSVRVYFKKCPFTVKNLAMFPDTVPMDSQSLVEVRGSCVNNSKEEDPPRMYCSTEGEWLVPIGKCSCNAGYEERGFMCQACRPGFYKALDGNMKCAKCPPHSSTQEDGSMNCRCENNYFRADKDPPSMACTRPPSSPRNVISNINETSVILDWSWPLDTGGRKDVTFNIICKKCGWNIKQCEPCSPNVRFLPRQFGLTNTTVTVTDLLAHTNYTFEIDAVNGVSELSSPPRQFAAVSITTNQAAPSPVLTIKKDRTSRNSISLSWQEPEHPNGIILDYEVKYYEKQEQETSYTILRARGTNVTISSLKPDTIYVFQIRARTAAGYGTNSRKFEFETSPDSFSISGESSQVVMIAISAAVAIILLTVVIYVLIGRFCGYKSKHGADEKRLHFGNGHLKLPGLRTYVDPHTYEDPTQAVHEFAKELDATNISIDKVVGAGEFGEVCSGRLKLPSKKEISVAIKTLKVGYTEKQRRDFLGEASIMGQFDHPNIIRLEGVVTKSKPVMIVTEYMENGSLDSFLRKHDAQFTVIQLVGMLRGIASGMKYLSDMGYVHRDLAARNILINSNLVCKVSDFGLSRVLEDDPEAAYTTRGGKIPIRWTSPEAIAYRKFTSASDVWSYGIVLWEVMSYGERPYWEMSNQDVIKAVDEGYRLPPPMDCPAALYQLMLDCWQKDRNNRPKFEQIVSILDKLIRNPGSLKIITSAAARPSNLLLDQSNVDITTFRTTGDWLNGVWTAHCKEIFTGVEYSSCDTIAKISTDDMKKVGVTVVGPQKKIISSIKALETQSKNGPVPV
Chain of UniProt P22607 (whole entry, looked up): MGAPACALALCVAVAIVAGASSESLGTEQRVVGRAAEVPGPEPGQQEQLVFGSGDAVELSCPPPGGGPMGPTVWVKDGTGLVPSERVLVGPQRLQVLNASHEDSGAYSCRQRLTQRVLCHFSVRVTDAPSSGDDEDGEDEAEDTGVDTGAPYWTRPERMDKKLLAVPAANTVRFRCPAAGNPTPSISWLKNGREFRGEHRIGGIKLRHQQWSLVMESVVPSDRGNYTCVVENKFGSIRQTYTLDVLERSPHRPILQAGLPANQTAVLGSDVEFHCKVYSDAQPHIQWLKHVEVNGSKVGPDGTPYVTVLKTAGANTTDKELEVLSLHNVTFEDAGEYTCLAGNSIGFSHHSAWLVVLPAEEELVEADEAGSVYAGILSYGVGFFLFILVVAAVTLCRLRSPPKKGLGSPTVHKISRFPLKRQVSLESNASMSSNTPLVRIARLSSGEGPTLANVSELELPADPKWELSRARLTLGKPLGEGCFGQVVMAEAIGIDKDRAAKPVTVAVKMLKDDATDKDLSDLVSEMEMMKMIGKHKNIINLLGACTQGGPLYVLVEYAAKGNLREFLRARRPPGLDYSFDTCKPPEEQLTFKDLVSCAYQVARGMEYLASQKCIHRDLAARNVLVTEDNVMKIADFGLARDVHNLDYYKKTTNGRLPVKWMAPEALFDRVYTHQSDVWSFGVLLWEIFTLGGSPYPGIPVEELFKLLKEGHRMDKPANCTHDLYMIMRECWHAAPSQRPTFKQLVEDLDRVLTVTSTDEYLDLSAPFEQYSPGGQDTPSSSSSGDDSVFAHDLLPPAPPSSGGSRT
Chain of UniProt Q08881 (whole entry, looked up): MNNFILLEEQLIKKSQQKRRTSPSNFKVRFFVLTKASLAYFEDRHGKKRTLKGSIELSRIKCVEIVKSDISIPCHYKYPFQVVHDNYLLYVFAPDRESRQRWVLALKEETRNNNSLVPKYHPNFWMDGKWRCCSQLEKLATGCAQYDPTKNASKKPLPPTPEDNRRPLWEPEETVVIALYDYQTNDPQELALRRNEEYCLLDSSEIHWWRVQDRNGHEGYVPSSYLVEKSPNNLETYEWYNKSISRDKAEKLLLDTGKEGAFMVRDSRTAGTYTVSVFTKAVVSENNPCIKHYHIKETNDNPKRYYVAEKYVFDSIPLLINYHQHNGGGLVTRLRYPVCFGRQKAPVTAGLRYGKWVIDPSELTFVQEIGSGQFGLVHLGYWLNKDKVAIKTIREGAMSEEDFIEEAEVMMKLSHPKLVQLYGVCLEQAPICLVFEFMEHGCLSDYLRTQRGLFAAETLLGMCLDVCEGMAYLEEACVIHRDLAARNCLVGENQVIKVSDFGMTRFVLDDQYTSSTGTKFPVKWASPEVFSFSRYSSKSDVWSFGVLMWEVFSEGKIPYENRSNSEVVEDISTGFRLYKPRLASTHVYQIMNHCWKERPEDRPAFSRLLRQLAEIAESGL
Chain of UniProt Q9NWZ3 (whole entry, looked up): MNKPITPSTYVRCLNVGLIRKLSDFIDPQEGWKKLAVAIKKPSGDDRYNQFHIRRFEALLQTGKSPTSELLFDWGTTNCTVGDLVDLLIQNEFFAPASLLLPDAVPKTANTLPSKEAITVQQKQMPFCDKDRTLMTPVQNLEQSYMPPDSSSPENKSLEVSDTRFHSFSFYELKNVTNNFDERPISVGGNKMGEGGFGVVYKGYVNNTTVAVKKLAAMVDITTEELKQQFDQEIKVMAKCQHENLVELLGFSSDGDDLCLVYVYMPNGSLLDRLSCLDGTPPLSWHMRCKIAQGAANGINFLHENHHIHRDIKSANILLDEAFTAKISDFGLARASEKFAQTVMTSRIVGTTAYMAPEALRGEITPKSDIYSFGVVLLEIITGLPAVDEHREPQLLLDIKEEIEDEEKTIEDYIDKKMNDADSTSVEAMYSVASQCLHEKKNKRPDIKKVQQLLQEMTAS

Set 1
SMILES: O=c1cc(N2CCOCC2)oc2c1ccc1ccccc12
Effect on: enzyme activity
Mode: inhibitor
Tested at: 0.5 µM
Baseline: control
For ABL2 (Homo sapiens, UniProt P42684): remaining activity read 101%.
For GRK7 (Homo sapiens, UniProt Q8WTQ7): remaining activity read 107%.
It gave 103% for remaining activity (JAK3 (Homo sapiens, UniProt P52333)).
It gave 112% for remaining activity (EPHA3 (Homo sapiens, UniProt P29320)).
It gave 106% for remaining activity (NEK1 (Homo sapiens, UniProt Q96PY6)).
It gave 94.9% for remaining activity (ULK2 (Homo sapiens, UniProt Q8IYT8)).
It gave 102% for remaining activity (TBK1 (Homo sapiens, UniProt Q9UHD2)).
For WEE1 (Homo sapiens, UniProt P30291): remaining activity read 101%.
It gave 100% for remaining activity (MAP2K2 (Homo sapiens, UniProt P36507)).
It gave 108% for remaining activity (TAOK2 (Homo sapiens, UniProt Q9UL54)).
The remaining activity was 98.2% (FGFR3 (Homo sapiens, UniProt P22607)).
It gave 124% for remaining activity (GSK3B (Homo sapiens, UniProt P49841)).
For CSNK1G3 (Homo sapiens, UniProt Q9Y6M4): remaining activity read 98.1%.

Set 2
Target: JUN, bZIP domain (human)
Method: DHFR protein complementation
Matrix: yeast
Setting: single substitutions, most at no-binding floor
Baseline: wild-type JUN-FOS pair
Reading: higher = stronger binding
Starting sequence: JUN, bZIP domain (human); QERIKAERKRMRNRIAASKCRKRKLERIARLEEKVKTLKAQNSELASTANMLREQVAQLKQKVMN; partner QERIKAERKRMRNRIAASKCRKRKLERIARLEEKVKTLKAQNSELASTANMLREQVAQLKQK
For `I28L`, the binding fitness was -0.437 natural log.
`S47I` gave a binding fitness of -0.201 natural log.
`A46C` gave a binding fitness of -0.44 natural log.
The binding fitness of `A46G` is reported as -0.743 natural log.
`K39G` gave a binding fitness of -0.583 natural log.
For `A57V`, the binding fitness was -0.308 natural log.
`R53S` has a binding fitness of -0.596 natural log.
`T48A` gave a binding fitness of -0.283 natural log.

Set 3
Structure (SMILES): CN(C(=O)c1ccccc1)c1cc(N(C)c2ccc3c(c2)CCc2ccc(C(=O)NCCN4CCOCC4)cc2C3=O)ccc1F
Effect on: cell-free assay
Method: competition with immobilised ligand
Tested at: 1 µM
For MAP3K13 (Homo sapiens, UniProt O43283): remaining binding read 100%.
For MARK3 (Homo sapiens, UniProt P27448): remaining binding read 99%.
It gave 100% for remaining binding (GRK7 (Homo sapiens, UniProt Q8WTQ7)).
It gave 88% for remaining binding (CSK (Homo sapiens, UniProt P41240)).
NEK1 (Homo sapiens, UniProt Q96PY6) — remaining binding: 45%.
The remaining binding was 74% (AKT3 (Homo sapiens, UniProt Q9Y243)).
It gave 100% for remaining binding (Tyrosine-protein kinase JAK1, JH1 (JAK1, Homo sapiens, UniProt P23458)).
For PIM3 (Homo sapiens, UniProt Q86V86): remaining binding read 91%.
PRKD2 (Homo sapiens, UniProt Q9BZL6) — remaining binding: 84%.
It gave 83% for remaining binding (OXSR1 (Homo sapiens, UniProt O95747)).
For LCK (Homo sapiens, UniProt P06239): remaining binding read 100%.
For EPHA3 (Homo sapiens, UniProt P29320): remaining binding read 85%.
It gave 100% for remaining binding (NUAK2 (Homo sapiens, UniProt Q9H093)).
MAP2K3 (Homo sapiens, UniProt P46734) — remaining binding: 100%.
For CDK8 (Homo sapiens, UniProt P49336): remaining binding read 100%.
For ITK (Homo sapiens, UniProt Q08881): remaining binding read 100%.
WNK2 (Homo sapiens, UniProt Q9Y3S1) — remaining binding: 100%.
Tyrosine-protein kinase ABL1, non-phosphorylated (ABL1, Homo sapiens, UniProt P00519, Q252H) — remaining binding: 85%.
It gave 100% for remaining binding (NIM1K (Homo sapiens, UniProt Q8IY84)).
The remaining binding was 100% (MAPK10 (Homo sapiens, UniProt P53779)).
ROS1 (Homo sapiens, UniProt P08922) — remaining binding: 81%.
It gave 100% for remaining binding (IRAK4 (Homo sapiens, UniProt Q9NWZ3)).
The remaining binding was 87% (AXL (Homo sapiens, UniProt P30530)).

Set 4
Target: TAR DNA-binding protein 43, full length, His tag (TARDBP, Homo sapiens, UniProt Q13148, residues 1-414)
Method: RNA Bind-n-Seq
Molecule type: RNA
Matrix: in vitro
Tested at: 20 nM
Setting: 6-mer, flanks averaged, single round
With: 150 mM KCl
Baseline: input library
Reading: higher = stronger binding
For `CACGAG`, “6-mer enrichment (R)” read 0.991.
`ACCAGA` — result for “6-mer enrichment (R)”: 0.712.
For `CGGUUA`, “6-mer enrichment (R)” read 0.712.
Under “6-mer enrichment (R)”, `CACGGA` is recorded as 0.936.
`ACUGAA`: “6-mer enrichment (R)” 0.673.
Under “6-mer enrichment (R)”, `AUCUAU` is recorded as 0.551.
For `CACCCC`, “6-mer enrichment (R)” read 0.673.
`UUACUG`: “6-mer enrichment (R)” 0.627.
